Measured values of several laboratories.
Protocols differ between the studies behind these lines.
Organism: Schistosoma mansoni

Fc1cc(F)c(-c2c(Cl)nc(-c3cccs3)nc2NCC2CCC2)c(F)c1 — EC50 (worm motility; adult worms ex vivo; 24 h): 780 nM
CC1=C(Cn2cc(CBr)nn2)C(=O)c2ccccc2C1=O — killing (adult worms; 10 µM, 72 h): 44.9%
COc1ccc(Nc2cnnc3cc(-c4cnc(N5CCCN(C)CC5)nc4)ccc23)cc1Cl — phenotypic severity score (adult worms; 10 µM, 1 h; direction not given): 1
Nc1cc(F)c(-c2c(Cl)nc(-c3cccs3)nc2NCC2CCC2)c(F)c1 — EC50 (worm motility; adult worms ex vivo; 24 h): < 300 nM
COc1ccc(Nc2cnnc3cc(-c4cnc(N5CCN(C)CC5)nc4)ccc23)cc1 — phenotypic severity score (adult worms; 10 µM, 48 h; direction not given): 0
CC1=C(Cn2cc(CN(Cc3ccccc3)Cc3ccccc3)nn2)C(=O)c2ccccc2C1=O — killing (adult worms; 25 µM, 48 h): 46.5%
CN1CCN(S(=O)(=O)c2ccc(-c3ccc4c(Nc5ncccn5)cnnc4c3)cc2)CC1 — phenotypic severity score (adult worms; 10 µM, 48 h; direction not given): 0
CC1=C(Cc2cn(CCN3CCC(=O)CC3)nn2)C(=O)c2ccccc2C1=O — killing (adult worms; 10 µM, 72 h): 49%
O=C1NC(CF)(CF)C(=O)N1c1ccc(F)c(C(F)(F)F)c1 — worm burden reduction (NMRI mice, infected; oral, 100 mg/kg single dose, 21 days post-treatment, treated day 49 post-infection): 35%
CC1=C(Cc2cn(CCN3CCNCC3)nn2)C(=O)c2ccccc2C1=O — killing (adult worms; 25 µM, 24 h): 48.4%
COc1ccc(Nc2cnnc3cc(-c4cnc(N5CCCN(C)CC5)nc4)ccc23)cc1 — phenotypic severity score (adult worms; 10 µM, 5 h; direction not given): 0
C#Cc1cc(F)c(-c2c(Cl)nc(-c3cccs3)nc2NCC2(C)N=N2)c(F)c1 — EC50 (worm motility; adult worms ex vivo; 24 h): < 300 nM
CN1CCN(c2ncc(-c3ccc4nncc(Nc5ncccn5)c4c3)cn2)CC1 — phenotypic severity score (adult worms; 10 µM, 48 h; direction not given): 1
CC1=C(Cn2cnc([N+](=O)[O-])n2)C(=O)c2ccccc2C1=O — IC50 (viability; adult worms; 72 h): 7300 nM
COc1cc(F)c(-c2c(Cl)nc(-c3cccs3)nc2NCC2(C)COC2)c(F)c1 — EC50 (motility; adult worms, ex vivo; 24 h): 38 nM

Some of these lines once more:
COc1ccc(Nc2cnnc3cc(-c4cnc(N5CCN(C)CC5)nc4)ccc23)cc1 — phenotypic severity score (adult worms; 10 µM, 48 h; direction not given): 0
CC1=C(Cn2cc(CN(Cc3ccccc3)Cc3ccccc3)nn2)C(=O)c2ccccc2C1=O — killing (adult worms; 25 µM, 48 h): 46.5%
